Experimental data of several laboratories.
Lines come from different studies, so protocols differ.
CDK4: Cyclin-dependent kinase 4 (CDK4, Homo sapiens, UniProt P11802)
UniProt P11802, sequence (whole entry, looked up): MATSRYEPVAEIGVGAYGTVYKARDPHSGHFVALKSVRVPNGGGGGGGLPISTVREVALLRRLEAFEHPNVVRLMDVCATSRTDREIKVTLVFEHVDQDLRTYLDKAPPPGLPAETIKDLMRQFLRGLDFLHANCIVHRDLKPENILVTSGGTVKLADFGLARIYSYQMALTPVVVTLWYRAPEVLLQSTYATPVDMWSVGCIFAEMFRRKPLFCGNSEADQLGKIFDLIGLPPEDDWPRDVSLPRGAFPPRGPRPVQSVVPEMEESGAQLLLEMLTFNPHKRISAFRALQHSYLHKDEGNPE
MAOA: Amine oxidase [flavin-containing] A (MAOA, Homo sapiens, UniProt P21397)
UniProt P21397, sequence (whole entry, looked up): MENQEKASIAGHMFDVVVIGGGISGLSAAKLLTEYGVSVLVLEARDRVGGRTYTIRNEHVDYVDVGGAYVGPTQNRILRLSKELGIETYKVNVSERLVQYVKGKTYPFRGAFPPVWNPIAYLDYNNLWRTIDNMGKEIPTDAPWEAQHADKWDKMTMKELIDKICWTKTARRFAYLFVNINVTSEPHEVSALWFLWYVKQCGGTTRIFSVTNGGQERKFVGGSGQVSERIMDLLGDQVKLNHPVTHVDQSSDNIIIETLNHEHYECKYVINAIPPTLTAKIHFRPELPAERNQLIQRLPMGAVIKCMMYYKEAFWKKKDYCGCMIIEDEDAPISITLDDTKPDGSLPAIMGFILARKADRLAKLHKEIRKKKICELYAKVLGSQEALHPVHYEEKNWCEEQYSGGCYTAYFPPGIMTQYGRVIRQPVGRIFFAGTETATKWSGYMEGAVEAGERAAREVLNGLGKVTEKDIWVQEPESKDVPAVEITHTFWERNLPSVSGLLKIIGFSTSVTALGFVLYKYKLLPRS
UniProt Q9P0L2, sequence (whole entry, looked up): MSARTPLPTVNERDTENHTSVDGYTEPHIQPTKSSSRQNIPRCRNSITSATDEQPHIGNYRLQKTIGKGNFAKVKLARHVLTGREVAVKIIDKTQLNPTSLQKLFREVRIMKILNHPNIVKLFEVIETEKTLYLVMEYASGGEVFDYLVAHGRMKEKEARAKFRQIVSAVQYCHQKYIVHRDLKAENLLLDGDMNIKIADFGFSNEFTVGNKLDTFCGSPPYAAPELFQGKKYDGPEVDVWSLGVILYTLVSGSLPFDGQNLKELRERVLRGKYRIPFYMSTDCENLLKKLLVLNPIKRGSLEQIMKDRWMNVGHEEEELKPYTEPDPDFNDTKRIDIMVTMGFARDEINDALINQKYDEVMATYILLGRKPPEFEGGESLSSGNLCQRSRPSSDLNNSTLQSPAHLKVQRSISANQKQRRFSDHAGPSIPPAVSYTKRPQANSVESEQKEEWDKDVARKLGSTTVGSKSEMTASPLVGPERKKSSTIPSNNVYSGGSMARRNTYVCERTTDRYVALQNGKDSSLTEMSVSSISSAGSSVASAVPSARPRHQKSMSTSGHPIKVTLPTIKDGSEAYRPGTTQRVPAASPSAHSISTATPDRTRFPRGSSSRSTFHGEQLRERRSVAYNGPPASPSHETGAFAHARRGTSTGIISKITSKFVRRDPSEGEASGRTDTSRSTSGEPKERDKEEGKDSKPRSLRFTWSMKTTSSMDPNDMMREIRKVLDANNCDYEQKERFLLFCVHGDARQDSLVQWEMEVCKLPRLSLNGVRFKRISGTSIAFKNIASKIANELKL
UniProt P34972, sequence (whole entry, looked up): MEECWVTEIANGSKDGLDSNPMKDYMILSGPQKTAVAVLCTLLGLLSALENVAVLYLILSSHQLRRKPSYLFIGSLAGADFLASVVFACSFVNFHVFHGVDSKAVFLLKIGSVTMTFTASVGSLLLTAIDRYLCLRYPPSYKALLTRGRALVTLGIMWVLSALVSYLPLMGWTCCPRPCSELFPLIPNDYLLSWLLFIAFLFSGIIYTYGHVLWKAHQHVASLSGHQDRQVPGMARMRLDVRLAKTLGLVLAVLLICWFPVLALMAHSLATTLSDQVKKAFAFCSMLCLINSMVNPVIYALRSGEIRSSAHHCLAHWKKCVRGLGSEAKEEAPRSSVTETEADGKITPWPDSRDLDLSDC
UniProt Q16832, sequence (whole entry, looked up): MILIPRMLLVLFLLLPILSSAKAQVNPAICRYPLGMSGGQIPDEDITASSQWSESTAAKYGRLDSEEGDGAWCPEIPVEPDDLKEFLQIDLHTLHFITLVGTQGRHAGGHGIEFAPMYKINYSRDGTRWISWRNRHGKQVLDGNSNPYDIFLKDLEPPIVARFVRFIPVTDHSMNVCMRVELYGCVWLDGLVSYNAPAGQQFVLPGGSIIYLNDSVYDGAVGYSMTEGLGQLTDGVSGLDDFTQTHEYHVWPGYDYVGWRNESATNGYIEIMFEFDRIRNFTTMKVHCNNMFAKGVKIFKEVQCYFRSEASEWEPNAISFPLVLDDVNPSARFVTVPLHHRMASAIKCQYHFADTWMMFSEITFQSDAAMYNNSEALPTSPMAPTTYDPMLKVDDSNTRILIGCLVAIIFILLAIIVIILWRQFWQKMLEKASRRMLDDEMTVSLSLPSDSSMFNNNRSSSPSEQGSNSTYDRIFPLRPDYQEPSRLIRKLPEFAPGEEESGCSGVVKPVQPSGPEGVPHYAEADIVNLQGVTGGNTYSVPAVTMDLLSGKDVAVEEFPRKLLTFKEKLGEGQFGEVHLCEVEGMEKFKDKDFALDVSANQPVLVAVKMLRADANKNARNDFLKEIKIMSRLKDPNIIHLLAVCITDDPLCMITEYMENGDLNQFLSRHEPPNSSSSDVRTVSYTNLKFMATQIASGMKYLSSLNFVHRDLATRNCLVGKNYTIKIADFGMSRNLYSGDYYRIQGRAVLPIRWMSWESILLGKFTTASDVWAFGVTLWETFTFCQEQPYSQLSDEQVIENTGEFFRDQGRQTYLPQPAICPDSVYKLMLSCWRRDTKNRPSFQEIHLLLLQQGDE

`COC(=O)CCCNC(=O)c1ccc(Nc2ncc(F)c(-c3cc(F)c4nc(C)n(C(C)C)c4c3)n2)cc1` gave an IC50 of 0.012 µM (CDK4).
The IC50 of `O=C1Nc2c(Br)cccc2/C1=C1/Nc2ccccc2C1=NO` is reported as over 10 µM (Cyclin-dependent kinase 4, with cyclin D1 (CDK4, Homo sapiens, UniProt P11802)).
`COC(=O)CCCCCCC(=O)NCc1ccc(Nc2ncc(F)c(-c3cc(F)c4nc(C)n(C(C)C)c4c3)n2)cc1` gave an IC50 of 0.0021 µM (CDK4).
`CC(C)c1ccc(/C=C/C(=O)c2ccc(S(C)(=O)=O)cc2)cc1` has an IC50 of over 40 µM (MAOA; enzyme activity, inhibitor).
The IC50 of `Cc1cc(O)c2c(c1)C(=O)c1cc(O)c(S(=O)(=O)O)c(O)c1C2=O` is reported as over 100 µM (MAOA; enzyme activity, inhibitor).
`Cc1nn(-c2cccc(N)c2)c(=O)c2cnc(Nc3ccc(N4CCNCC4)cc3)nc12` has an IC50 of over 10 µM (Serine/threonine-protein kinase MARK1 (MARK1, Homo sapiens, UniProt Q9P0L2); enzyme activity, inhibitor).
For `CCN(CC)CC(=O)Nc1cccc(-n2cc(-c3ccc4ccc(-c5cn(-c6cccc(NC(=O)CN(CC)CC)c6)nn5)cc4c3)nn2)c1`, the IC50 was over 10 µM (Serine/threonine-protein kinase mTOR (MTOR, Homo sapiens, UniProt P42345); enzyme activity, inhibitor).
`CC(C)(COP(=O)(O)OP(=O)(O)OC[C@H]1O[C@@H](n2cnc3c(N)ncnc32)[C@H](O)[C@@H]1OP(=O)(O)O)[C@@H](O)C(=O)NCCC(=O)NCCSCCC(=O)N[C@@H](CO)C(=O)NCC(=O)N[C@@H](CCCNC(=N)N)C(=O)NCC(=O)N[C@@H](CCCCN)C(=O)NCCCC[C@H](NC(=O)CC[C@@H]1NC(=O)[C@@H](CCCNC(=N)N)NC(=O)[C@H](CCCNC(=N)N)NC(=O)[C@@H](CCCNC(=N)N)NC(=O)[C@H](CCCNC(=N)N)NC(=O)[C@H](Cc2csc3ccccc23)NC(=O)[C@@H](Cc2ccccc2)NC(=O)[C@H](Cc2ccccc2)NC1=O)C(N)=O` has an IC50 of 0.046 µM (N-alpha-acetyltransferase 40 (NAA40, Homo sapiens, UniProt Q86UY6); enzyme activity, inhibitor, fluorescence).
The IC50 of `Nc1n[nH]c2ccc(C(=O)N3CCC4(CC3)C(=O)N(CC(=O)NCC(F)(F)F)CN4c3ccccc3)cc12` is reported as 1.67 µM (Discoidin domain-containing receptor 2 (DDR2, Homo sapiens, UniProt Q16832); ligand displacement).
`O=C1CSC(c2cccc(Br)c2)N1c1cc(Cl)ccc1O` (centres unmarked) gave an IC50 of 11 µM (ACTR3/Actin-related protein 2 (Homo sapiens, UniProt P61158+P61160); actin polymerization, pyrenyl-actin).
For `O=C(Cc1ccc(OCc2ccccc2)cc1)NC1(C(=O)O)CCN(C(=O)c2ccc(-c3cccc(Cl)c3)cc2)CC1`, the IC50 was over 10 µM (Cannabinoid receptor 2 (CNR2, Homo sapiens, UniProt P34972); antagonist, GloSensor cAMP).

Some of these lines once more:
`Cc1nn(-c2cccc(N)c2)c(=O)c2cnc(Nc3ccc(N4CCNCC4)cc3)nc12` has an IC50 of over 10 µM (Serine/threonine-protein kinase MARK1 (MARK1, Homo sapiens, UniProt Q9P0L2); enzyme activity, inhibitor).
